Measurements collected from several papers.
Protocols differ between the studies behind these lines. ± marks the error that the study gave.
Cell line: HeLa

For `C=C1C(=O)OC2C=C(C)CCC=C(C(=O)OC(C)C(C)(O)C(=O)OC3C(OC(C)=O)C(C(=O)OC)=CCCC(C)=CC4OC(=O)C(=C)C43)CC(OC(=O)C(C)=CC)C12` (stereo not shown), the sub-G1 cells was 5.1% (PI staining flow cytometry; 3 µM, 24 h).
For `CC1=[N+]2N=C(c3ccccc3)[O][Pd-2]2([Cl])[O+]=C2Oc3ccccc3C=C21` (stereo not shown), “G2/M phase cells” read 18.1% (flow cytometry; IC50, 24 h).
Under lysophospholipid level, `COc1ccc(CCC(=O)Nc2nc3ccc(Cl)cc3s2)cc1OC` is recorded as “increased” (shotgun lipidomics, refers to: LPA 18:0 and LPG 16:0; 10 µM, 18 h).
With `CC(C)(C)c1cc2c(O)c(c1)Cc1cc(C(C)(C)C)cc(c1OCC(=O)NCc1ccncc1)Cc1cc(C(C)(C)C)cc(c1O)Cc1cc(C(C)(C)C)cc(c1OCC(=O)NCc1ccncc1)COC2` the inhibition was 64% (cell growth or viability, MTT; 15 µM, 72 h).
Under “cells in G2 phase”, `CNC(=O)c1c(C)oc2cc(Oc3ncnc4cc(OC)c(OCCCCCCC(=O)NO)cc34)ccc12` is recorded as 23.4% (PI staining flow cytometry; 3 µM, 48 h).
`CC(C)CCOc1cc(C[n+]2cn(CCC(C)C)c3ccccc32)c(OCCC(C)C)c2ccccc12` has an inhibition of 50% (qRT-PCR, refers to: PCNA mRNA; 10 µM; reference: control).
With `Cc1cc(/C=C2\CN(C(C)C)C/C(=C\c3cc(C)c(O)c(C)c3)C2=O)cc(C)c1O` the apoptotic cells was 11.3 ± 2.25% (annexin V/PI flow cytometry; 2.5 µM, 24 h).
For `O=c1c(/C=N/NC(=S)N/N=C/c2cc(Cl)ccc2O)coc2ccccc12`, the apoptotic cells was 13.5% (annexin V-PI flow cytometry; 50 µM, 24 h).
For `COc1cc2c(=O)c(-c3ccc4c(c3)OCO4)coc2c2c1OC(C)(C)C=C2`, the apoptotic cells was 44.1% (annexin V/PI flow cytometry; 20 µM, 48 h).
The inhibition of `C[C@@H]1NC(=O)[C@H](CCCNC(=N)N)NC(=O)[C@H](Cc2ccc3ccccc3c2)NC(=O)[C@@H]2CCCCN2C(=O)[C@@H]([C@H](C)OP(=O)(O)O)NC(=O)CN(C)C(=O)[C@@H](C)NC(=O)c2cc3cc(c2)C(=O)NC[C@H](NC(=O)[C@@H](C)NC1=O)C(=O)N[C@@H](Cc1ccccc1)C(=O)N[C@@H](Cc1ccc2ccccc2c1)C(=O)N[C@@H](CCCNC(=N)N)C(=O)N[C@@H](CCCNC(=N)N)C(=O)N[C@@H](CCCNC(=N)N)C(=O)N[C@@H](CCCNC(=N)N)C(=O)N[C@H](C(=O)N[C@@H](CCCCN)C(N)=O)CNC3=O` is reported as 45% (cell growth, MTT; 20 µM, 3 days).

Some of these lines once more:
For `CC1=[N+]2N=C(c3ccccc3)[O][Pd-2]2([Cl])[O+]=C2Oc3ccccc3C=C21` (stereo not shown), “G2/M phase cells” read 18.1% (flow cytometry; IC50, 24 h).
